Measured values from different studies.
Each line is one published result; not all experiments were run side by side. ± gives the spread as reported.
MEP cytidylyltransferase IspD: MEP cytidylyltransferase IspD (Plasmodium falciparum, UniProt Q8I273)
FGFR1: Fibroblast growth factor receptor 1 (FGFR1, Homo sapiens, UniProt P11362)
Sequence of UniProt P11362 (whole entry, looked up): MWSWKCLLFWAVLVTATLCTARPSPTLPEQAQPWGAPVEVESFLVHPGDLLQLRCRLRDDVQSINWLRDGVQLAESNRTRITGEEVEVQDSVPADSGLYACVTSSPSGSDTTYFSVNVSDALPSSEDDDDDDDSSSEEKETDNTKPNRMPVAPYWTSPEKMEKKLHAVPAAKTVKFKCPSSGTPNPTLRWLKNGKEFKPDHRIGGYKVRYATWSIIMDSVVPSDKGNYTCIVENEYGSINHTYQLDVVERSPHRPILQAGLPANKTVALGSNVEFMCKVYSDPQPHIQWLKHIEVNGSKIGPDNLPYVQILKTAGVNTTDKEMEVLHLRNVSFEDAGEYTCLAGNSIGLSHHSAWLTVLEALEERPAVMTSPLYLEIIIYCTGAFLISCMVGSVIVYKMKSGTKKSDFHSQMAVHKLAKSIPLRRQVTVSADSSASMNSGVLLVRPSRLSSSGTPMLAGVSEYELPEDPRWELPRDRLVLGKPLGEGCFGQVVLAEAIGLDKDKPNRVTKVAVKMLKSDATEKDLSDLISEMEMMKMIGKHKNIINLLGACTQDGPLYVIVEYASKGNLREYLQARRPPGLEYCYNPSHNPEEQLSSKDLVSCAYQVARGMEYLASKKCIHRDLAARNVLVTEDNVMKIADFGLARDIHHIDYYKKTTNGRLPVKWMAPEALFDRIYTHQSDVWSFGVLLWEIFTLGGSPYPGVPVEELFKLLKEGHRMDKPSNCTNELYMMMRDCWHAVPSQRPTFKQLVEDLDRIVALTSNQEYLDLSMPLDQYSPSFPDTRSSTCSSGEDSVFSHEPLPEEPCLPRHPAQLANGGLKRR
Sequence of UniProt Q9NNX6 (whole entry, looked up): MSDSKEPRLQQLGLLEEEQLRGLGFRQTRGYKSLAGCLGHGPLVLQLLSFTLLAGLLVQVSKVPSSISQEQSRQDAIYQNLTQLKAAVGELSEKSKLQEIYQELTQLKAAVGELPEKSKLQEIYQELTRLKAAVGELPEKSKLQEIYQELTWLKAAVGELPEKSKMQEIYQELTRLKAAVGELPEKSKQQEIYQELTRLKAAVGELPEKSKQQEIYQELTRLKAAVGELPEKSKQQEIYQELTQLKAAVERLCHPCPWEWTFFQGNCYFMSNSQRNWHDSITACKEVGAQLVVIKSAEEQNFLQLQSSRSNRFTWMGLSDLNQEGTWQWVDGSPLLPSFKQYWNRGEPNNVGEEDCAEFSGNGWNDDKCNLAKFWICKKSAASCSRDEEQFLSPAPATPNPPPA
Sequence of UniProt O15379 (whole entry, looked up): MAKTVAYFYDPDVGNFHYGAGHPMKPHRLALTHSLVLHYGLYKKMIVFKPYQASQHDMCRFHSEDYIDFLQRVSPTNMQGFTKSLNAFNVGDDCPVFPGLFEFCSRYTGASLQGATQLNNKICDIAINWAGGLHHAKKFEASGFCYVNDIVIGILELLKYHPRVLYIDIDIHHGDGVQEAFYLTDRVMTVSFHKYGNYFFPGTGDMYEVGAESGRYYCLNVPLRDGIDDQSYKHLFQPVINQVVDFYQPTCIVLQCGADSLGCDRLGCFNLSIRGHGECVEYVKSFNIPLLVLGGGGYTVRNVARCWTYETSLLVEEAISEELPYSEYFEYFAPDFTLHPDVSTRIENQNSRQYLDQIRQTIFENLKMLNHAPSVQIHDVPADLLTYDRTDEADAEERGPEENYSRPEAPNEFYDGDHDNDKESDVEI
Sequence of UniProt P35354 (whole entry, looked up): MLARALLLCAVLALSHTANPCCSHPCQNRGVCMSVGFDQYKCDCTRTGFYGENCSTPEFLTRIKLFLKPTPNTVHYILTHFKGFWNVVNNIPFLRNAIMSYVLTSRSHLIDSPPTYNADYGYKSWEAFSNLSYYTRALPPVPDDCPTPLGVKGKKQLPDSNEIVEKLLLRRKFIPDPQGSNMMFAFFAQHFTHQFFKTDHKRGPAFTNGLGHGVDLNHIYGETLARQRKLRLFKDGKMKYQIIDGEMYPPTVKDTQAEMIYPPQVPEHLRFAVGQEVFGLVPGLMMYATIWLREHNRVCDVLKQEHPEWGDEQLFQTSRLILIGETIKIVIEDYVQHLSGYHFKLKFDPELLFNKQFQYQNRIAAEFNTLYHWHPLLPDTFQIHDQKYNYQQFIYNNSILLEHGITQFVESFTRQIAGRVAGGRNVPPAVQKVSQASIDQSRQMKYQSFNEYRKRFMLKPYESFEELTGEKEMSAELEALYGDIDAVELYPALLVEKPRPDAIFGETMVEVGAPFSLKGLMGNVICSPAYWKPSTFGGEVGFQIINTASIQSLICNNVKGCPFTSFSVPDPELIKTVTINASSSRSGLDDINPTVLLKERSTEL
Sequence of UniProt Q03405 (whole entry, looked up): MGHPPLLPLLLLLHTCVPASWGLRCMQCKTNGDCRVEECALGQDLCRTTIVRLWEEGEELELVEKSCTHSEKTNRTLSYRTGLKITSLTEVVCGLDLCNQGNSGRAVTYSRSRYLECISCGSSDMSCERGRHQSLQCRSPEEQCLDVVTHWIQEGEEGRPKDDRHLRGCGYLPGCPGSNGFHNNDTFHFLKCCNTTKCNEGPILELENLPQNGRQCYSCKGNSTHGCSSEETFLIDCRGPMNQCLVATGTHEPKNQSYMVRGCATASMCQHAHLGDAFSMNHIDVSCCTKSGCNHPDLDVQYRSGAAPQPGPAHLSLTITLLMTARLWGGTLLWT
Sequence of UniProt P63146 (whole entry, looked up): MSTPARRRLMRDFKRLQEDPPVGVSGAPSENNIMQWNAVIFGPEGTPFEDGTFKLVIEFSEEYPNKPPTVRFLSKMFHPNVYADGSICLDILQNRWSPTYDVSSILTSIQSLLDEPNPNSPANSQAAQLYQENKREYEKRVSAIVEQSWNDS
Sequence of UniProt O14746 (whole entry, looked up): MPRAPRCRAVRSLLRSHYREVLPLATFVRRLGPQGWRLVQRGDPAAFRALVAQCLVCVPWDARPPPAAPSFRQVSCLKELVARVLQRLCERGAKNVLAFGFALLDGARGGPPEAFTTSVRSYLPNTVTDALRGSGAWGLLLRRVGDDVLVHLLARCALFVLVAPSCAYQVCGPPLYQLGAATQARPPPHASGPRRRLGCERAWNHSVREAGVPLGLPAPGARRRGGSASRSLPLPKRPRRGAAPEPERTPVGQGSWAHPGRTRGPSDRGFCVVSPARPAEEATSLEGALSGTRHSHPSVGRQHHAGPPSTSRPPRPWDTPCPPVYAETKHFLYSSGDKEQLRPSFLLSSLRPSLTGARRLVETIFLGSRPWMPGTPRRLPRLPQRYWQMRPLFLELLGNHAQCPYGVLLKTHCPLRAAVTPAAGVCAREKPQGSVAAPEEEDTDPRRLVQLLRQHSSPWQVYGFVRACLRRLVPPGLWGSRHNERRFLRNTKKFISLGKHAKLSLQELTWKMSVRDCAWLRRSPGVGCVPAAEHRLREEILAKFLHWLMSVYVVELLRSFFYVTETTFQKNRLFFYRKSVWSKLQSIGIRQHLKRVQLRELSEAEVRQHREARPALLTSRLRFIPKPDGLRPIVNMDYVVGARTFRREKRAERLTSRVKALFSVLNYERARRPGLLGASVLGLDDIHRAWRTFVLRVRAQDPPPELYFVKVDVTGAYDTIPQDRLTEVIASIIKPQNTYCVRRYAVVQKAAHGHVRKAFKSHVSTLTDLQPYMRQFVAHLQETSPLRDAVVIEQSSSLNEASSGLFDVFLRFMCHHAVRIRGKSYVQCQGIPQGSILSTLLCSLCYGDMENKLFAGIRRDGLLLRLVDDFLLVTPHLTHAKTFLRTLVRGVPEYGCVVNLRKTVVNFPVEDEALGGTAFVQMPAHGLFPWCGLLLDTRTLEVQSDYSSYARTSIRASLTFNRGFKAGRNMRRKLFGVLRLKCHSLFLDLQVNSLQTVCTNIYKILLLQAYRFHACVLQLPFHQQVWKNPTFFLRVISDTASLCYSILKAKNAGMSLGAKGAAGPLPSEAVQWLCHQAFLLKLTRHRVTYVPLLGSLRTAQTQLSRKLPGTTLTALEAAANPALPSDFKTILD
Sequence of UniProt P13346 (whole entry, unmodified, looked up): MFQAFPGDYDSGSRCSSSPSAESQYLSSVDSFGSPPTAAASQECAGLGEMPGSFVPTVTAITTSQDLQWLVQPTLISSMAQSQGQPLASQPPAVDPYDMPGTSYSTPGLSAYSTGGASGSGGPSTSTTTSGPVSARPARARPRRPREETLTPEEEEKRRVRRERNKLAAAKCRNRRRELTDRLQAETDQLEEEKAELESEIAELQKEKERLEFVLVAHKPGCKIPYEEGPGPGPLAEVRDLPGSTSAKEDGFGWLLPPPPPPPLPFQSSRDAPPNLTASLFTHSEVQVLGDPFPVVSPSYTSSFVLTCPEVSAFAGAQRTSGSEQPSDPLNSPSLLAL
Sequence of UniProt Q9Y6W6 (whole entry, looked up): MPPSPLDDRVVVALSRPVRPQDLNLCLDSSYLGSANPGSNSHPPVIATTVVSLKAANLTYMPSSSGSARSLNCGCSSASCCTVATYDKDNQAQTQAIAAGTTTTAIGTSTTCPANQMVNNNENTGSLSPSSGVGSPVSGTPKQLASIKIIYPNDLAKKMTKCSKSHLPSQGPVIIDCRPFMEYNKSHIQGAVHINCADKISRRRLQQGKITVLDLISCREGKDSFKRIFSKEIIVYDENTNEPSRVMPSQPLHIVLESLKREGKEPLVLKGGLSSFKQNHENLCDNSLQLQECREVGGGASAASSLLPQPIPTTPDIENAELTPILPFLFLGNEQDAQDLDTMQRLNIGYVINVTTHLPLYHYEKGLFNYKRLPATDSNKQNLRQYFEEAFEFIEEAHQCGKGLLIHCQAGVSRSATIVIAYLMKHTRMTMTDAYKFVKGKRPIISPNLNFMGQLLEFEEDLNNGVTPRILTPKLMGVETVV
Sequence of UniProt P49720 (whole entry, looked up): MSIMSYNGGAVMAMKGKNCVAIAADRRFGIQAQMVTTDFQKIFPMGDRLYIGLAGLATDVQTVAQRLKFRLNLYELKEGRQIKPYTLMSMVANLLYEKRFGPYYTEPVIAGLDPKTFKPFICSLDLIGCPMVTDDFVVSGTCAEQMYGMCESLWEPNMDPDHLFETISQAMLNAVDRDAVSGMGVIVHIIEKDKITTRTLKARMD

With `O=C(N[C@@H](Cc1coc2ccccc12)B(O)O)[C@@H]1C[C@H]2CC[C@@H]1O2` the IC50 was greater than 30000 nM (Proteasome subunit beta type-10 / Proteasome subunit beta type-3 (Homo sapiens, UniProt P40306+P49720); MECL-1 enzyme activity, inhibitor; human immunoproteasome; 2 h preincubation, together with: Ac-RLR-AMC).
`COc1cc(/C=C/c2cc(/C=C/c3ccc(O)c(OC)c3)on2)ccc1O` gave an IC50 of 30200 nM (Sterol carrier protein 2 (Helicoverpa armigera, UniProt K7NSY9); displacement of 1,8-ANS, fluorescence; pH 7.0, 25 °C, together with: 1,8-ANS 15 µM).
The IC50 of `Cc1ccc([C@H]2N[C@H](C(=O)O)Cc3c2[nH]c2ccccc32)c(Cl)c1` is reported as 82 ± 10 nM (MEP cytidylyltransferase IspD; enzyme activity, inhibitor, fluorimetric pyrophosphate; 60 nM enzyme).
`O=C(O)CCOCCOCCOCCOCCOCc1cn([C@H]2[C@@H](O)[C@@H](CO)O[C@@H](S[C@@H]3O[C@H](CO)[C@H](O)[C@H](n4cc(-c5ccccc5)nn4)[C@H]3O)[C@@H]2O)nn1` gave an IC50 of 9030 ± 27 nM (Galectin-3 (LGALS3, Homo sapiens, UniProt P17931); binding to asialofetuin, inhibitor, ELISA; LGALS3 5.56 µM).
`Cc1ccc(O)c(C(=O)Nc2ccc(CN)cc2)c1` gave an IC50 of 2400 ± 300 nM (TMPRSS11D (Homo sapiens, UniProt O60235); enzyme activity, inhibitor; 15 min preincubation, together with: Boc-VPR-AMC 100 µM).
`COc1ccc(C2CC(Br)=NO2)cc1` (racemic) has an IC50 of 15000 nM (GSTP1 (Homo sapiens, UniProt P09211); enzyme activity, inhibitor; together with: GSH and 1-bromo-2,4-dinitrobenzene).
For `O=C(O)c1ccccc1-c1c2ccc(=O)cc-2oc2cc(O)ccc12`, the IC50 was greater than 100000 nM (Ubiquitin-conjugating enzyme E2 B (Homo sapiens, UniProt P63146); enzyme activity, inhibitor).
`O=C(CS(=O)(=O)Cc1cccs1)C12CC3CC(CC(C3)C1)C2` gave an IC50 of 202 nM (HSD11B1 (Homo sapiens, UniProt P28845); enzyme activity in cells, inhibitor).
The IC50 of `CC(C)c1c(-c2cccc3[nH]ccc23)[nH]c(C(=O)O)c1-c1c(Cl)ccc2[nH]ccc12` is reported as 2000 nM (E3 ubiquitin-protein ligase RING2, with BMI1 (RNF2, Homo sapiens, UniProt Q99496); RING1B-BMI1-nucleosome binding, AlphaScreen).
The IC50 of `[N-]=[N+]=N[C@H]1C[C@H](n2cnc3c(N)nc(N)nc32)O[C@@H]1COP(=O)(O)OP(=O)(O)OP(=O)(O)O` is reported as 8000 nM (TERT (Homo sapiens, UniProt O14746); enzyme activity, inhibitor, stretch PCR; together with: competing dNTP 10 µM).
The IC50 of `O=C(Nc1ccc(Cl)c(C(F)(F)F)c1)c1cccc(Oc2ccncc2)c1` is reported as greater than 30000 nM (DDR1 (Homo sapiens, UniProt Q08345); enzyme activity, inhibitor, mobility shift).
The IC50 of `COCCCN1CCc2c(Cc3ccc(Cl)cc3)[nH]c3c(OC(F)F)ccc(c23)C1=O` is reported as 8.3 nM (PDE5A (Homo sapiens, UniProt O76074); enzyme activity, inhibitor).
`O=C(CCCCCCNCc1ccc(-c2ccccc2)s1)NO` gave an IC50 of 38 nM (HDAC3 (Homo sapiens, UniProt O15379); enzyme activity, inhibitor, fluorescence).
With `Cc1ccc(CNC(=O)[C@@H]2Cc3cccc(c3)Oc3cccc(c3)C[C@H](N)C(=O)N[C@@H](CCc3ccccc3)C(=O)N2)cc1` the IC50 was 1250 nM (20S proteasome (Plasmodium falciparum, UniProt A0A5K1K7U1+Q8IJT1); β5 activity, inhibitor; together with: Suc-LLVY-AMC, PA28α-activated).
`Cc1cc2c(NC(=O)N[C@@H]3CC(C)(C)Oc4cc(C(F)(F)F)ccc43)cccc2cn1` gave an IC50 of 20.9 nM (Trpv1 (Rattus norvegicus, UniProt O35433); calcium signal, antagonist, fluorescence).
`CCc1nc2ccccn2c1C(=O)c1cc(Br)c(O)c(C#N)c1` has an IC50 of 70 nM (Solute carrier family 22 member 12 (Rattus norvegicus, UniProt Q3ZAV1, M481I/N35S/Y365F); urate uptake, inhibitor, LC-MS/MS; HEK-293T cells).
With `CC(=O)N[C@H](C)C(=O)N[C@@H](CC(N)=O)C(=O)N[C@@H](Cc1c[nH]c2ccccc12)C(=O)N[C@@H](CC(N)=O)C(=O)NCC(=O)N[C@@H](Cc1ccccc1)C(=O)NCC(=O)N[C@H](Cc1c[nH]c2ccccc12)C(=O)N[C@@H](CCCNC(=N)N)C(=O)N[C@@H](Cc1ccccc1)C(N)=O` the IC50 was less than 10 nM (KiSS-1 receptor (KISS1R, Homo sapiens, UniProt Q969F8); inositol phosphate, antagonist).
The IC50 of `C=CC(=O)N1CCC(c2cc(C(=O)O)n(C)n2)CC1` is reported as 29000 ± 600 nM (Protein FosB, ΔFosB isoform (Fosb, Mus musculus, UniProt P13346); ΔFOSB homodimer DNA binding, fluorescence polarization; 15 min, together with: TMR-cdk5 oligonucleotide).
With `CC(C)C[C@H](NC(=O)[C@H](Cc1ccc(O)cc1)NC(=O)[C@@H](CCCNC(=N)N)NC(=O)[C@@H](CO)NC(=O)[C@H](Cc1ccccc1)NC(=O)[C@H](CC1CCCCC1)NC(=O)[C@H](CC(=O)O)NC(=O)CN1CCCN2CCN(CCCN(CC(=O)O)CC2)CC1)C(=O)N[C@@H](Cc1c[nH]c2ccccc12)C(=O)N[C@@H](CO)C(=O)O` (single isomer, unassigned) the IC50 was 5.9 ± 1 nM (Urokinase plasminogen activator surface receptor (Homo sapiens, UniProt Q03405); binding to pro-uPA, inhibitor, surface plasmon resonance; together with: uPAR 0.5 nM).
With `N[C@@H](CCC(=O)N[C@@H](CS[Se]Cc1ccc(-c2cccc(C(O)c3ccc(Cl)c(Cl)c3)c2)cc1)C(=O)NCC(=O)O)C(=O)O` (stereo partly drawn) the IC50 was greater than 200000 nM (Dual specificity protein phosphatase 10 (Homo sapiens, UniProt Q9Y6W6); enzyme activity, inhibitor; together with: pNPP, GSH 1 mM).
With `CNC(=O)[C@@H]1Cc2c([nH]c3ccccc23)[C@@H](c2ccc(C)cc2Cl)N1` the IC50 was 360 ± 40 nM (MEP cytidylyltransferase IspD; enzyme activity, inhibitor, fluorimetric pyrophosphate; 60 nM enzyme).
For `COc1cc(N2CCN(C)CC2)ccc1Nc1ncc2c(n1)N(C)c1ccc(C)cc1C(=O)N2CC(F)(F)F`, the IC50 was greater than 10000 nM (LRRK2 (Homo sapiens, UniProt Q5S007); enzyme activity, inhibitor).
The IC50 of `COc1cc2nccc(Oc3ccc(NC(=S)NCc4cccnc4)c(Cl)c3)c2cc1C(N)=O` is reported as 2930 nM (FGFR1).
`O=C(O)C(CO)NCc1cc(Cl)c(OCc2cccc(-c3ccccc3)c2Br)cc1OCc1cccnc1` (stereo not drawn) has an IC50 of greater than 10000 nM (LAG3, with MHC class II (Homo sapiens, UniProt P18627); protein-protein interaction, inhibitor, HTRF).
`O=C(NCCCN1CCC(Cc2ccccc2)CC1)c1ccc2ccccc2c1` has an IC50 of 60 to 180 nM (SLC6A4 (Homo sapiens, UniProt P31645); transporter uptake).
With `c1ccc(-c2cc3ccccc3o/c2=N\c2ccc3ccc4cccc5ccc2c3c45)cc1` the IC50 was 10.6 nM (PTGS2 (Homo sapiens, UniProt P35354); enzyme activity, inhibitor).
With `Cc1ccc2oc(-c3c4c(N)n[nH]c(=O)c4nn3-c3ccc(NC(=O)/C=C/CN(C)C)cc3)c(C)c2c1` the IC50 was greater than 1000 nM (ERBB4 (Homo sapiens, UniProt Q15303); enzyme activity, inhibitor, ELISA).
The IC50 of `OC(c1ccccc1)(c1cccs1)c1ccccc1Cl` (stereo not drawn) is reported as 2000 nM (Gap junction alpha-8 protein (Gja8, Mus musculus, UniProt P28236); gap junction current, inhibitor, dual whole-cell voltage clamp; transfected mouse N2a cell pairs).
For `COc1cc2nccc(Oc3ccc(NC(=S)NC4CC4)c(Cl)c3)c2cc1C(=O)NO`, the IC50 was 294 nM (FGFR1).
For `CC(C)(C)NCCCNC(=O)c1ccnc(Br)c1`, the IC50 was greater than 100000 nM (Lethal(3)malignant brain tumor-like protein 3 (Homo sapiens, UniProt Q96JM7); methyl-lysine reader binding, inhibitor, AlphaScreen).
`NCc1cn([C@@H]2[C@@H](O[C@H]3C[C@H](C(=O)NCc4ccc(CO)cc4)[C@@H](C(=O)NCc4ccc(CO)cc4)C[C@@H]3OCCCl)O[C@H](CO)[C@@H](O)[C@@H]2O)nn1` has an IC50 of 76000 nM (CD209 antigen (CD209, Homo sapiens, UniProt Q9NNX6); cell-free assay, SPR).
The IC50 of `N#Cc1cnc(Nc2nc3ccccc3o2)nc1-c1ccc(Br)cc1` is reported as 4120 nM (Grm5 (Rattus norvegicus, UniProt P31424); calcium signal, antagonist).
`Cc1cc(-c2ccc(/N=N/c3ccc4c(S(=O)(=O)O)cc(S(=O)(=O)O)c(N)c4c3O)c(C)c2)ccc1/N=N/c1ccc2c(S(=O)(=O)O)cc(S(=O)(=O)O)c(N)c2c1O` gave an IC50 of roughly 6000 nM (F13A1 (Homo sapiens, UniProt P00488); enzyme activity, inhibitor, fluorescence; pH 7.4).
With `Cc1cccc2c1N(C(=O)CSc1ccc(C(F)(F)F)cn1)CCC2` the IC50 was 2000 nM (TRPV3 (Homo sapiens, UniProt Q8NET8); calcium flux, inhibitor; HEK293 overexpressing target; 30 min preincubation, together with: drofenine 200 µM).
For `CC(C)c1ccc(CN2CCN(CC(=O)c3ccc4[nH]c(=O)[nH]c4c3)CC2)cc1`, the IC50 was 90000 nM (Single-stranded DNA cytosine deaminase (AICDA, Homo sapiens, UniProt Q9GZX7); deaminase activity, inhibitor, alkaline cleavage; 293T lysate, untagged; pH 7.2, 37 °C).
With `O=c1cc(-c2cccc(O)c2)oc2ccc3ccccc3c12` the IC50 was 18700 nM (KMO (Homo sapiens, UniProt O15229); enzyme activity, inhibitor, absorbance).
The IC50 of `COc1cc2nccc(Oc3ccc(NC(=S)NC4CCC(F)(F)CC4)c(Cl)c3)c2cc1C(N)=O` is reported as 7620 nM (FGFR1).
For `CCCCOc1ccc(S(=O)(=O)N2CC2C(=O)OC)cc1` (stereo not drawn), the IC50 was 960 nM (P4HB (Homo sapiens, UniProt P07237); enzyme activity, inhibitor, absorbance; pH 7.6).
With `NC(=O)Nc1cc(-c2ccc(CN3CCOCC3)cc2)sc1C(N)=O` the IC50 was 10200 nM (Adenine DNA glycosylase (Mutyh, Mus musculus, UniProt Q99P21); base excision activity, fluorogenic probe).
